{"data": "Measured values gathered from unrelated publications", "note": "A part holds a random share of what one study measured.", "sequence of UniProt P28147 (whole entry, looked up)": "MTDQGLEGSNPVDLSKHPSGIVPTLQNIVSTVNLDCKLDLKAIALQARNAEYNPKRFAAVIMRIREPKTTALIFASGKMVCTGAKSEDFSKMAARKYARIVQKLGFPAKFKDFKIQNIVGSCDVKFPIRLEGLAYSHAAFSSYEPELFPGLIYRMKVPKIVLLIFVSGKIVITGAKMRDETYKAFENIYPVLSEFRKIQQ", "sequence of UniProt Q9Y261 (142-269, looked up)": "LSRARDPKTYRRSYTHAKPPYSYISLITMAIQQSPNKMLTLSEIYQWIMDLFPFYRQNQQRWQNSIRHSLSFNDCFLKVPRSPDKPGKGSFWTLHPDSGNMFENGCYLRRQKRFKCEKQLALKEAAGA"}
{"data": "Block 1", "target": "Replicase polyprotein 1ab, main protease (rep, Severe acute respiratory syndrome coronavirus 2, UniProt P0DTD1)", "read-out": "enzyme activity", "mode": "inhibitor", "concentration": "20 µM", "notes": "primary screen"}
{"Structure (SMILES)": "O=c1c(O)c(-c2ccc(O)cc2O)oc2cc(O)cc(O)c12", "inhibition [%]": 30.9}
{"Structure (SMILES)": "CO[C@H]1C([C@@]2(C)O[C@@H]2CC=C(C)C)[C@]2(CC[C@H]1OC(=O)NC(=O)CCl)CO2 (stereo partly shown)", "inhibition [%]": 65.3}
{"Structure (SMILES)": "Nc1nc(Nc2ccc3c(c2)CC[C@@H](N2CCCC2)CC3)nn1-c1cc2c(nn1)-c1ccccc1CCC2", "inhibition [%]": 30.2}
{"data": "Block 2", "target": "Fragile X messenger ribonucleoprotein 1, C-terminal low-complexity region (Fmr1, Mus musculus, UniProt P35922)", "technique": "RNA Bind-n-Seq", "form": "RNA", "sample": "in vitro", "concentration": "200 nM", "notes": "whole 134-nt RNA, ends assumed", "with": "150 mM LiCl", "relative to": "input library", "reading": "higher = stronger binding", "all molecules": "7-deaza-guanosine replaces G", "shared flanks, not repeated": "GGGAGUUCUACAGUCCGACGAUC … UGGAAUUCUCGGGUGUCAAGG"}
{"Oligonucleotide": "CUGUGCUACACAUCGUAUGUACCGAAUCAAAUUUUUUUAAAUUUUUUUAAAUUUUUUUAAAAAAGUAUUAUGUUACGCCGUUCGGAUCUG", "log2 enrichment": -2.68}
{"Oligonucleotide": "UGGCCCUGGUGGCAUGCGGGGAGGAAGAGGUGGCCUCAUGGAUCGUGGUGGUCCCGGUGGAACGUUCAGAGGUGGCCGUGGUGGAGACAG", "log2 enrichment": 0.541}
{"Oligonucleotide": "AGUCCUGUGCUACACAUCGUAUGUACCGAAUCAAACCCCCAAAUUUUUAAAUUUAAAAAAGUAUUAUGUUACGCCGUUCGGAUCUGCACU", "log2 enrichment": 0.114}
{"Oligonucleotide": "AGUCCUGUGCUACACAUCGUAUGUACCGAAUCGGGGAAAGGGGAGGGGAAAAAGGGGAAAGUAUUAUGUUACGCCGUUCGGAUCUGCACU", "log2 enrichment": 0.43}
{"Oligonucleotide": "UGGCCAUGGUGGCAUGCGGGGAGGAAGAGGUGGCCUCAUGGAUCGUGGUGGUCCCGGUGGAAUGUUCAGAGGUGGCCGUGGUGGAGACAG", "log2 enrichment": -0.509}
{"Oligonucleotide": "GUCCUGUGCUACACAUCGUAUGUACCGAAUCGGGGUUUUUGGGUUUUUGGUUUUUGGGGAAAGUAUUAUGUUACGCCGUUCGGAUCUGCA", "log2 enrichment": -1.54}
{"Oligonucleotide": "UUAAGGAAGGACACUGAGUCAUGCACAAGUCCUUGCCUUCUUGGUGCCCCUCGGAAAGCACAAGACCCCUCCUCUGCUGGGUGUGAUCAA", "log2 enrichment": 1.38}
{"Oligonucleotide": "CCUGUGCUACACAUCGUAUGUACCGAAUCGGGGUUUUUUUGGGGAAAAAGGGGAAAGGGGAAAGUAUUAUGUUACGCCGUUCGGAUCUGC", "log2 enrichment": -1.3}
{"data": "Block 3", "target": "Interferon regulatory factor 3, full length, phosphomimetic (IRF3, Homo sapiens, UniProt Q14653, residues 1-427, S386D/S396D/S398D/S402D/T404D/S405D)", "technique": "protein-binding microarray", "form": "double-stranded DNA, one strand shown", "sample": "in vitro", "concentration": "2540 nM top", "notes": "60-bp whole probe", "with": "salmon DNA 0.4 mg/ml", "relative to": "random background probes", "reading": "higher = stronger binding", "shared flanks, not repeated": "GCCTAGCAC … GTCTTGATTCGCTTGACGCTGCTG", "Target sequence (chain)": "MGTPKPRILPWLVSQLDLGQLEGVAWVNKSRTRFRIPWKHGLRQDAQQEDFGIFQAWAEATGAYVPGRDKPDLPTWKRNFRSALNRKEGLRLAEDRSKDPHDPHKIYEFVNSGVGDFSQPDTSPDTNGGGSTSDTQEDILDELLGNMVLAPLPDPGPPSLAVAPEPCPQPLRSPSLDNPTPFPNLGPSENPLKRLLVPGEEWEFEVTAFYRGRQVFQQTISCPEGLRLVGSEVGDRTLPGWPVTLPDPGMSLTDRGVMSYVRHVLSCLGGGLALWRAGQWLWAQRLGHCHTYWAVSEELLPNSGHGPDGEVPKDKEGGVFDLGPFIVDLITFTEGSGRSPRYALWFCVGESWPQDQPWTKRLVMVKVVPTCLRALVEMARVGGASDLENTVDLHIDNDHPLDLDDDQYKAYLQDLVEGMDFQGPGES"}
{"Oligonucleotide": "GACGATTTCACTCTCGAGACGTGCTAG", "fitted relative affinity": "3.03 z-score"}
{"Oligonucleotide": "TCATCTCTTGTTCTCTCACTGTGCTAG", "fitted relative affinity": "0.909 z-score"}
{"Oligonucleotide": "TTAGATATCGGGACTGGATTTGTGCTA", "fitted relative affinity": "-0.07 z-score"}
{"Oligonucleotide": "TTAGGTTTCTGGTATCGGTTAGTGCTA", "fitted relative affinity": "2.7 z-score"}
{"Oligonucleotide": "ACTAGTTTTCATTTTCTGAAGTGCTAG", "fitted relative affinity": "5.18 z-score"}
{"Oligonucleotide": "GACGAACTGGGGTATCGAGATGTGCTA", "fitted relative affinity": "-0.224 z-score"}
{"Oligonucleotide": "GACGATCTCCTACTGCTGACGTGCTAG", "fitted relative affinity": "0.808 z-score"}
{"Oligonucleotide": "TCACCTCCAGGTTCTCTGACTGTGCTA", "fitted relative affinity": "-0.372 z-score"}
{"data": "Block 4", "target": "Replicase polyprotein 1ab, nsp13 helicase (rep, Severe acute respiratory syndrome coronavirus 2, UniProt P0DTD1)", "mode": "inhibitor", "concentration": "20 µM"}
{"Structure (SMILES)": "CC(C)C[C@@H]1NC(=O)[C@@H](C(C)C)NC(=O)[C@@H]2CCCN2C(=O)[C@@H](CC(=O)O)NC(=O)[C@@H](Cc2c[nH]c3ccccc23)NC1=O", "inhibition [%]": 9.02}
{"Structure (SMILES)": "O=C1NCN(c2ccccc2)C12CCN(CCCC(c1ccc(F)cc1)c1ccc(F)cc1)CC2", "inhibition [%]": 6.86}
{"Structure (SMILES)": "N=C(N)NC(=N)NCCc1ccccc1", "inhibition [%]": -1.95}
{"Structure (SMILES)": "C[C@H](C[C@H](N)C(=O)O)C(=O)O", "inhibition [%]": 5.86}
{"Structure (SMILES)": "Fc1ccc(CN2CCC(Nc3ccc(C(F)(F)F)nn3)CC2)cc1F", "inhibition [%]": 0}
{"Structure (SMILES)": "Cc1cccc(C)c1NC(=O)C(C)N (stereo not shown)", "inhibition [%]": 5.64}
{"Structure (SMILES)": "COc1cc(C[C@H]2c3cc(OC)c(OC)cc3CCN2C)c(Oc2cc3c(cc2OC)-c2c(OC)c(OC)cc4c2[C@H](C3)N(C)CC4)cc1OC", "inhibition [%]": 21.4}
{"Structure (SMILES)": "CCS(=O)(=O)c1ccc2oc(-c3ccc4ccccc4c3)nc2c1", "inhibition [%]": -3.33}
{"Structure (SMILES)": "CC1=CC(=O)c2ccccc2C1=O", "inhibition [%]": 21.6}
{"Structure (SMILES)": "N#Cc1c(N2C[C@@H]3NCCO[C@H]3C2)c(F)cc2c(=O)c(C(=O)O)cn(C3CC3)c12", "inhibition [%]": 3.26}
{"Structure (SMILES)": "O=c1[nH]c2ccccc2c(=O)n1CCCN1CCN(c2ccccc2)CC1", "inhibition [%]": -1.35}
{"Structure (SMILES)": "CC1(C)CC(=O)c2c(C(F)(F)F)nn(-c3ccc(C(N)=O)c(N[C@H]4CC[C@H](O)CC4)c3)c2C1", "inhibition [%]": 6.24}
{"Structure (SMILES)": "CC[C@H](C)[C@H](NC(=O)[C@H](Cc1ccc(O)cc1)NC(=O)[C@@H](NC(=O)[C@H](CCCNC(=N)N)NC(=O)[C@@H](N)CC(=O)O)C(C)C)C(=O)N[C@@H](Cc1cnc[nH]1)C(=O)N1CCC[C@H]1C(=O)N[C@@H](Cc1ccccc1)C(=O)O", "inhibition [%]": 6.08}
{"Structure (SMILES)": "O=S(=O)(Oc1ccc(Cl)cc1)c1ccc(Cl)cc1", "inhibition [%]": 4.92}
{"Structure (SMILES)": "COc1cc(Nc2ncc(F)c(Nc3ccc4c(n3)NC(=O)C(C)(C)O4)n2)cc(OC)c1OC", "inhibition [%]": 6.59}
{"Structure (SMILES)": "Cc1cn([C@H]2O[C@@H](CO)[C@H](O)[C@H]2F)c(=O)[nH]c1=O", "inhibition [%]": 1.47}
{"Structure (SMILES)": "CCN(C)C(=O)Oc1cccc([C@H](C)N(C)C)c1", "inhibition [%]": -0.25}
{"Structure (SMILES)": "CCCC(=O)OCOC(=O)C1=C(C)NC(C)=C(C(=O)OC)C1c1cccc(Cl)c1Cl (stereo not shown)", "inhibition [%]": 3.86}
{"Structure (SMILES)": "COC(=O)c1ccc2c(c1)nc(NC(=O)c1ccccc1)n2CCCc1ccccc1", "inhibition [%]": 2.79}
{"data": "Mixed results", "CTCF": "Transcriptional repressor CTCF (CTCF, Homo sapiens, UniProt P49711, residues 1-727, full length assumed)", "sequence of UniProt P49711 (whole entry, looked up)": "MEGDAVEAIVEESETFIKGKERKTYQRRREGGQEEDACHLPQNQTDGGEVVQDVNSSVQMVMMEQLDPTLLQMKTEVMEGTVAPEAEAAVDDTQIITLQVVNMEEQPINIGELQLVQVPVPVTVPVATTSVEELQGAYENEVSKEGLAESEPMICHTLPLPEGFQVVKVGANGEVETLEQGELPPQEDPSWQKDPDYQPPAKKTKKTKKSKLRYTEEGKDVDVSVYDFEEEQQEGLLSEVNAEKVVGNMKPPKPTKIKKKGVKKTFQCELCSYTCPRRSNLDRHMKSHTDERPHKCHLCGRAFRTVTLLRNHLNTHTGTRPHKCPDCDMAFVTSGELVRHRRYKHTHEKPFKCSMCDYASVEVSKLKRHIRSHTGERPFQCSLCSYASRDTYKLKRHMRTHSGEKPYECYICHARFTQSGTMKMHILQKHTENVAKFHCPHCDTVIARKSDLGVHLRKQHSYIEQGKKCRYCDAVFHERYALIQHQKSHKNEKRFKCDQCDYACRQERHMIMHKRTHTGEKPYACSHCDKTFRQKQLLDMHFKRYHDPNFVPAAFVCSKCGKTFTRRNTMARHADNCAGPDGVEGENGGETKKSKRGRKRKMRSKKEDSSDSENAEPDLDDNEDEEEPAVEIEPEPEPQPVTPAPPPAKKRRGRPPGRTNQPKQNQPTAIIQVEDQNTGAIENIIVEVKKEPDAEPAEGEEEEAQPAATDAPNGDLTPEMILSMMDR"}
{"Molecule": "ACAATAAA", "target or system": "CTCF", "assay": "protein-binding microarray", "test system": "double-stranded DNA, one strand shown, in vitro", "setting": "not given, k-mer, scored over probes, only values ≥0.25", "scale": "higher = stronger binding", "endpoint": "E-score", "result": 0.258}
{"Molecule": "Oc1ccc(OCc2ccccc2)cc1", "target or system": "HEK-293T/ACE2", "setting": "10 µM, 16 h", "scale": "relative to: vehicle", "endpoint": "viability", "result": "87.5%"}
{"Molecule": "AGTTATA", "target or system": "TATA-box-binding protein 1 (TBP1, Arabidopsis thaliana, UniProt P28147, residues 1-200, full length assumed)", "assay": "protein-binding microarray", "test system": "double-stranded DNA, one strand shown, in vitro", "setting": "not given, k-mer, scored over probes, only values ≥0.25", "scale": "higher = stronger binding", "endpoint": "E-score", "result": 0.411}
{"Molecule": "ATGATATC", "target or system": "Hepatocyte nuclear factor 3-beta, forkhead domain (FOXA2, Homo sapiens, UniProt Q9Y261, residues 142-269)", "assay": "protein-binding microarray", "test system": "double-stranded DNA, one strand shown, in vitro", "setting": "not given, k-mer, scored over probes, only values ≥0.25", "scale": "higher = stronger binding", "endpoint": "E-score", "result": 0.296}
{"Molecule": "CGCAAGTA", "target or system": "CTCF", "assay": "protein-binding microarray", "test system": "double-stranded DNA, one strand shown, in vitro", "setting": "not given, k-mer, scored over probes, only values ≥0.25", "scale": "higher = stronger binding", "endpoint": "E-score", "result": 0.292}
{"note": "A few entries again (block 4):"}
{"Structure (SMILES)": "CCCC(=O)OCOC(=O)C1=C(C)NC(C)=C(C(=O)OC)C1c1cccc(Cl)c1Cl (stereo not shown)", "inhibition [%]": 3.86}
{"Structure (SMILES)": "Cc1cccc(C)c1NC(=O)C(C)N (stereo not shown)", "inhibition [%]": 5.64}
{"Structure (SMILES)": "COC(=O)c1ccc2c(c1)nc(NC(=O)c1ccccc1)n2CCCc1ccccc1", "inhibition [%]": 2.79}
